# Measurements pooled from the literature.
# Parts stem from different laboratories: compare values within a part only. Positions count from the first letter of the parent shown.

# Sample 1
# Target: CCNE1, cyclin fold, Cln2 fusion (human)
# Technique: yeast growth competition, sequencing
# Medium: yeast
# Notes: weak parent motif
# Baseline: not given
# Reading: higher = stronger binding
# Starting sequence: SLBP docking peptide (human); ARYKRKLLINDFG
Substitution,normalised enrichment score
ARYKRKLLINDGG [F12G],0.513
ARNKRKLLINDFG [Y3N],-0.187
ARYKRKLLSNDFG [I9S],1.58
ARYKRALLINDFG [K6A],1.03
ARYKRKLLINDFQ [G13Q],0.37
ARYKRKLLINDFF [G13F],0.825
ARYKRKLLINDMG [F12M],-0.214
ARYKRKLLINDPG [F12P],0.237
ARDKRKLLINDFG [Y3D],0.702
WRYKRKLLINDFG [A1W],0.421
ARYVRKLLINDFG [K4V],0.746
ARYKRTLLINDFG [K6T],1.05
ARYKRKLLINKFG [D11K],1.11
ARYKRDLLINDFG [K6D],0.204
GRYKRKLLINDFG [A1G],0.832
ARYKRKLLWNDFG [I9W],0.484

# Sample 2
# Target: Histone acetyltransferase KAT6A, winged helix 1, GST fusion (KAT6A, Homo sapiens, UniProt Q92794, residues 1-85)
# Technique: protein binding microarray
# Molecule type: double-stranded DNA, one strand shown
# Medium: in vitro
# Tested at: not given
# Notes: 8-mer, flanks averaged, mean of 2 arrays, mostly near background
# Baseline: not given
# Reading: higher = stronger binding
# Target sequence (chain): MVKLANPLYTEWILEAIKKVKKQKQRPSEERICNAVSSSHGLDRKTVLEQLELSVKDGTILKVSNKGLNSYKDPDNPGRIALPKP
Strand,E-score
ACCGGTAA,0.276
CCTCGCGA,0.218
TTACCAAA,-0.0929
ACTGGCAT,-0.155
ACCCTCCG,0.0962
GTGGAAGA,-0.192
GGAAGTAC,0.171
AACTAGAT,-0.0983
CGCAACGC,0.231
CCTTCAAC,-0.301
ACTTAATG,-0.0976
CCGTCGTA,0.272
ATGGCATG,-0.0869
ATACCACG,-0.118
GGGTTATA,0.0436
TAGTCTGA,-0.187
AGTGGAGA,-0.105
ACTGTGGG,-0.0681
CGTGGCCC,0.135

# Sample 3
# Target: Prothrombin, mature alpha-thrombin (F2, Homo sapiens, UniProt P00734)
# Technique: aptamer microarray, sandwich
# Molecule type: DNA with 2'F-ANA
# Medium: in vitro
# Tested at: 200 nM
# Notes: whole 15-mer aptamer, many near background
# With: Cy3 exosite-II aptamer, 400 nM
# Reading: higher = stronger binding
# Strand: GGTTGGTGTGGTTGG
Modification,mean fluorescence intensity
2'F-ANA at 2 3 5 11 12 13 14,54 a.u.
2'F-ANA at 1 2 3 4 9 13,97.6 a.u.
2'F-ANA at 1 3 4 5 6 7 8 9 12,161 a.u.
2'F-ANA at 2 3 4 7 8 9 10 11 13 14,179 a.u.
2'F-ANA at 1 2 3 4 6 9 10 11 12 14,49.6 a.u.
2'F-ANA at 1 2 4 6 8 9 10 11 14 15,51.9 a.u.
2'F-ANA at 2 3 10 11 14,280 a.u.
2'F-ANA at 2 4 5 8 9 11 13 15,54.3 a.u.
2'F-ANA at 1 2 3 7 10 14 15,96.8 a.u.
2'F-ANA at 2 3 6 10 11 14 15,219 a.u.
2'F-ANA at 5 8 11,68.3 a.u.
2'F-ANA at 4 5 6 7 12,198 a.u.
2'F-ANA at 1 2 3 4 5 8 9 11 12,102 a.u.
2'F-ANA at 1 3 5 8 9 10 15,47.3 a.u.
2'F-ANA at 4 7 8 9 10 12 13,131 a.u.
2'F-ANA at 1 2 5 7 8 9 10 11 12,53.9 a.u.
2'F-ANA at 1 2 4 5 9 10 11 12 13 14,52.1 a.u.
2'F-ANA at 2 5 10 12 13 15,47.5 a.u.
2'F-ANA at 2 4 5 13,55.7 a.u.
2'F-ANA at 1 2 3 5 6 8 9 11 12 15,98.6 a.u.
2'F-ANA at 2 6 9 11 12 13,403 a.u.
2'F-ANA at 2 9 10 11 15,118 a.u.
2'F-ANA at 3 6 7 8 9 10 11 13 14 15,339 a.u.
2'F-ANA at 1 4 5 8 9 10 12 14 15,55.9 a.u.
2'F-ANA at 1 2 3 4 6 8 9 15,165 a.u.

# Sample 4
# Target: Interferon regulatory factor 5, full length, phosphomimetic (IRF5, Homo sapiens, UniProt Q13568-2, residues 1-514, S451D/S453D/S456D/S462D)
# Technique: protein-binding microarray
# Molecule type: double-stranded DNA, one strand shown
# Medium: in vitro
# Tested at: 940 nM top
# Notes: 60-bp whole probe
# With: salmon DNA 0.4 mg/ml
# Baseline: random background probes
# Reading: higher = stronger binding
# Shared flanks, not repeated: GCCTAGCAC … GTCTTGATTCGCTTGACGCTGCTG
Strand,fitted relative affinity [z-score]
GACGATATAGGGACTGGAGACGTGCTA,-0.376
TCAGGAGTCATTCTCAAACTGTGCTAG,-0.123
TTAGGTTTCGACTTTCTGTTAGTGCTA,8.99
TTAGGACTGGGGTTTCGGTCAGTGCTA,5.3
TCAGTGCTCATCTGTCATACTGTGCTA,0.0892
GACGATTTCGGGACTGGAGCCGTGCTA,-0.139
TTAGGTATCGACCTTCGGTTAGTGCTA,4.28
GACGGTCTGGGGTATCGGGACGTGCTA,0.525
TCAATATTCTGCTTTGCACTGTGCTAG,0.0969
GACGGTATCGATTATCGGGACGTGCTA,7.85
TAGCATGTAATTTGTTTGCAGTGCTAG,-0.167
GACGGTTCGGGTTTCGGGACGTGCTAG,2.69
TTAGATTTCAGTCTCGATTCGTGCTAG,3.59
TTAGGTATCCGTATCGGTTAGTGCTAG,2.82
TTAGGTATCAGTTTCGGTTAGTGCTAG,9.5
GACGGTTTCGACTCTCGGGACGTGCTA,7.45
TCAAGCTTTTCATTTTTTACTGTGCTA,0.97
GACGGTATCGGGCTCGGGACGTGCTAG,2.84
TTAGGTATCGGGTTTCGGTTCGTGCTA,8.06
GACGGTTTCCTACTGCTCACGTGCTAG,0.675
TTATATATCAGTATCGATTAGTGCTAG,5.22
TTAGATTTCTGACTGGATTAGTGCTAG,0.279
CACGGTCTCCTTTTCCTGACGTGCTAG,0.695
GACGGACTGCTACTCCTGACGTGCTAG,-0.284
GACGGTATCCTACTGCTGGCGTGCTAG,0.0814

# Sample 5
# Target: RNA binding protein fox-1 homolog 2, RRM domain, GST-SBP tag (RBFOX2, Homo sapiens, UniProt O43251-10, residues 100-194)
# Technique: RNA Bind-n-Seq
# Molecule type: RNA
# Medium: in vitro
# Tested at: 365 nM
# Notes: natural RNA segment, single round, ends assumed
# Baseline: no-protein control
# Reading: higher = stronger binding
# Shared flanks, not repeated: GGGAGUUCUACAGUCCGACGAUC … UGGAAUUCUCGGGUGCCAA
# Residues (chain): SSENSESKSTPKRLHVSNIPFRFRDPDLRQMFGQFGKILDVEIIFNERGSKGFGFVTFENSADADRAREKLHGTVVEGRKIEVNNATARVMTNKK
Strand,RBNS enrichment (R)
UAUGAGUUCAUAUGUGGAAGAAAACUGGUGUUUUAGUAAAACCAAGUUCUUGACAUUAAUCUGUUGAGUUGUGGAUACUGGAAACCAUUUGUGUGUUCAAUCAGAUAAUU,0.479
GCAAAUCUCUUUUUAAAAAACUCUUUGGUGCACAAGUAACACAUUUGGCCACAAAACACCAAAGAAUUGUAGGCAGUGGCCCCUAUUGAGAAGUUUUCCGGUAGAGUUGG,0.611
CCCAUAUUUUGGUACCAGUUUCUCCUCAUGAAAUGCAGUCCCUGGAUUCUGUGCCAUCUGAACAUGCUCUCCUGUUGGUGUGUAUGUCACUAGGGCAGUGGGGAGACGUC,0.359
CUAUAUGAUUAAAGAAAAUAUGCAUAAUCAGACAAGCUUGAAUAUUGUUUUUGCACCAGACGAACAGUGAGGAAAUUCGGAGCUAUACAUAUGUGCAGAAGGUUACUACC,0.751
GCCUGUCUGUCUUCCUGUCACGUGGAUCCUUGGUUCUUUCCCGGCCAUUCCAUUCCCAGGGAGUGAGAAGUAUUGUGGGUAGAGUUGCCAAAGAUGGCUGGACCAUGGAA,1.85
ACUUAAGGGACCACCUUGGGAAGCUUCUGUAGCUUCAGCCAGGCAAGAAAGCUUCUUCCAACUUCUGUUUCUGGUGGGAGCGGGGGGACUCCCACUUUUUACAAUGUCUA,0.672
AAGUGGACACAAGCUGUGCCUGCACAUAGCUGUGCAGGGUAGACUGCCUACAUACACAUGGCCGGGAUUCUUUAUUUCCUUGUUAUCAAUUAUAGUGCUUUGUUUGUUUC,0.611
UUGGCUAGACUUCAUAUCGUGGAAGUAUUGUCUAUUUCAGUGUGAAACUAUCUUGAAUUUGCAAAUAUAGUGUUAUAUUUUAUAAAGUUUUGUAAAAUCCCAAACAAUAU,0.404
GGCUCAGAUGUGUUCAUCAAAUACUCCUUUCAGAGCUGUUGUGGGUGUAAGUGACAUGAUGUGGCCAAAAAUCCAAACUGUGCAGUUGCGUUGUGACAAACAUGCAAUGU,0.417
UAUGAGUAAGAAAUUGCAAUUUUGUAAACAUUCCUCGACUUGGUGGGGAGGAAUAAUUUUAUAAUUGCAUUUCCAGGUAUUUUUCAAGAUUACGAAAAUAUGCUACUCUG,0.794
AGGGUUGUCAGUGCAUCAGAAAUACUUCUAAAUAGUGGUAAAAAUGCACAUGGUUAAUGCACAUGUUACUUUUAAAUCAUUAGGAUAUCCCUCACCUGUUCCUGAUGAAU,0.572
ACUGUAAUGAUAAUCUUUCUCACGUAUAUACAUGCAACUUCUUGGCUUCAUUUCCAUGAAGCUGUUUCAAUAUAUUCAGUAUACUUUGUCCUUAAUGCUGCUUCUGUUAA,0.512

# Mixed results
Substance,target,test,test system,setting,scale,measurement,result
"PhoQ, residues 284 288 289 292 302 303 SACGEM","PhoP, residues 12 14 15 18 19 TQAIL (Escherichia coli, UniProt P23836)","Sort-seq, item: YFP reporter",E. coli,"PhoQ-PhoP variant library, with: 10 µM Mg2+","baseline: high Mg2+ state, higher = stronger signaling",fold induction,2.74
